# Results pooled from the literature.
# Lines come from different studies, so protocols differ.
Structure (SMILES),test,system,setting,AUC(0-inf)
CC(C)[C@H](N)C(=O)NCCCS(=O)(=O)O,,"human, plasma","oral, 265 mg twice daily, week 65, steady state",11300 ng·h/mL
CC(C)c1nc(N(C)S(C)(=O)=O)nc(-c2ccc(F)cc2)c1/C=C/[C@@H](O)C[C@@H](O)CC(=O)O,,"healthy human subjects, plasma","oral, 20 mg, day 1, alone, geometric mean",49.1 ng·h/mL
Cc1ncc2n1-c1ccc(Cl)cc1C(c1ccccc1F)=NC2,,"human, plasma","oral, 2 mg, day 1, single dose alone, geometric LS mean",26.9 ng·h/mL
Cc1ncc2n1-c1ccc(Cl)cc1C(c1ccccc1F)=NC2,,"human, plasma","oral, 2 mg, day 1",22.3 ng·h/mL
COc1ccc(C[C@@H]2NC(=O)[C@H]([C@@H](C)O)NC(=O)[C@@H]3[C@@H]4CCN3C(=O)[C@@H]3Cc5cn(c6ccc(F)cc56)CCCCCCN(Cc5ccc(cc5)CCNC(=O)[C@]5(C)CCCN5C2=O)C(=O)CCC(=O)N[C@@H](C)C(=O)N[C@H](CNC(=O)CCCCC[N+](C)(C)C)C(=O)N[C@@H](Cc2cccc(c2)CNC(=O)CO4)C(=O)N3)cc1,,"human, plasma","oral, 40 mg single, fasted (lower-fat comparison), geometric mean, added: sodium caprate 720 mg",0.505 µM·h
C[C@]1(CO)Cc2ncn(-c3ccc(C#N)c(Cl)c3)c2C(=O)O1,,"human, plasma","10 mg, first dose fasted",2.54 µM·h
CCC(CC)COC(=O)[C@H](C)N[P@](=O)(OC[C@H]1O[C@@](C#N)(c2ccc3c(N)ncnn23)[C@H](O)[C@@H]1O)Oc1ccccc1,,"human, plasma","intravenous, 100 mg single dose",1290 ng·h/mL
C[C@@](Cc1ccc(O)c(O)c1)(NN)C(=O)O,refers to: levodopa,"healthy human volunteers, plasma","subcutaneous, dose not given, 24 h infusion, geometric mean, crossover",2790 ng·h/mL
Cc1ncc2n1-c1ccc(Cl)cc1C(c1ccccc1F)=NC2,,"human, plasma","intravenous bolus, 3 µg, mean of subjects",0.11 ng·h/mL
OCc1ncc2n1-c1ccc(Cl)cc1C(c1ccccc1F)=NC2,,"human, plasma","oral, 7.5 mg of midazolam, day 1, geometric mean, no amenamevir",44.9 ng·h/mL
OCc1ncc2n1-c1ccc(Cl)cc1C(c1ccccc1F)=NC2,,"humans, plasma","3 mg of midazolam, added: isavuconazole",18.9 ng·h/mL
N.N.O=C([O-])C1(C(=O)[O-])CCC1.[Pt+2],refers to: unbound platinum,"human, plasma ultrafiltrate","intravenous, AUC 3, median, dose level -2",36700 ng·h/mL
O=c1ccc2ncc(=O)n3c2n1C[C@H]3CN1CCC(NCc2cc3c(cn2)OCCC3)CC1,,"healthy human volunteers, plasma","oral, 1500 mg, alone, arithmetic mean",20000 ng·h/mL
COC[C@@H](NC(C)=O)C(=O)NCc1ccccc1,fluorescence quenching,"human healthy male, plasma","oral, 100 mg single",48800 ng·h/mL
CC(=O)c1c(C)c2cnc(Nc3ccc(C4CCN(CCS(C)(=O)=O)CC4)cn3)nc2n(C2CCCC2)c1=O,,"human, dose-escalation trial, plasma","oral, 100 mg twice daily, day 21, multiple doses",3560 ng·h/mL
